Measurements pooled from the literature.
Values joined by “and” are separate records of one study, mostly repeats; a detail may differ. ± gives the spread as reported.
Organism: Cryptosporidium parvum

`O=C(O)[C@@H]1CCCCN1` — result for “relative parasite number”: 1.02 ± 0.095 (image-based; HCT-8; 1 mM, 24 h post-infection; relative to: PBS).
The EC50 of `COc1ccc(CNc2nc(-c3ccc(C(=O)O)cc3)nc3c2c2ccccc2n3C)cc1Cl` is reported as 870 nM (parasite growth, immunofluorescence microscopy; HCT-8, Iowa; 48 h post infection, compound added at 3 h).
The EC50 of `COc1ccc(NC(=O)N2CCCCN3C[C@H](c4ccc(C#Cc5ccccc5)cc4)[C@@H]3C2)cc1` is reported as 96 nM (growth inhibition; WSU field isolate).
`CCCc1nn(C)c2c(=O)[nH]c(-c3cc(S(=O)(=O)N4CCN(C)CC4)ccc3OCC)nc12` has an inhibition of -8.39% and -2.6% (parasite growth, immunofluorescence imaging; HCT-8, Iowa; 222 nM).
`Clc1ccc(C(Cn2ccnc2)OCc2c(Cl)cccc2Cl)c(Cl)c1` (stereo not drawn) gave a selectivity index of 10.9 (HCT-8; relative to: TC50 over EC50).
`CN1CCC[C@H]1C(=O)O` — result for “relative parasite number”: 1.01 ± 0.155 (image-based; HCT-8; 1 mM, 24 h post-infection; relative to: PBS).
With `O=C(Cc1cccc(-c2ccccc2)c1)N1CCN(c2ccc3nncn3n2)CC1` the EC50 was > 25000 nM (high-content imaging; HCT-8).
`CC(=O)Oc1ccccc1C(=O)Nc1ncc([N+](=O)[O-])s1` gave a parasite number of 62.7% and 54.2% and 51.4% and 41.2% (HCT-8; EC90, 24 h; relative to: DMSO control).
For `O=C(Cc1cc(C(F)(F)F)cc(C(F)(F)F)c1)N1CCN(c2ccc3nncn3n2)CC1`, “potency fold increase” read 3 fold (parasite growth, high-content microscopy; HCT-8; relative to: 3,5-dichloro analogue over compound EC50).
For `C[C@H](CCC(=O)O)[C@H]1CC[C@H]2[C@@H]3CC[C@@H]4C[C@H](O)CC[C@]4(C)[C@H]3C[C@H](O)[C@]12C`, “parasite growth ratio” read 0.557 ± 0.185 (HCT-8; 0.1 mM, 24 h; relative to: PBS).
`Cc1cc(CC(=O)N2CCN(c3ccc4nncn4n3)CC2)ccc1F` has an EC50 of 350 nM (high-content imaging; HCT-8).
`O=CO` — result for “relative parasite number”: 1.03 ± 0.108 (image-based; HCT-8; 1 mM, 24 h post-infection; relative to: PBS).
`c1ccc(CNc2nc(Nc3ccccc3)nc3ccccc23)cc1` gave an inhibition of 52.1% and 98.1% and 91.8% (host cell invasion; 2× EC90, 3 h; relative to: control).
`CCC(C)C(=O)C(=O)[O-].[Na+]` (stereo not drawn): “relative parasite number” 0.927 ± 0.078 (image-based; HCT-8; 1 mM, 24 h post-infection; relative to: PBS).
The EC50 of `COc1ccc(NC(=O)N2CCCCN3[C@H](COCCC(=O)O)[C@H](c4ccc(C#Cc5ccccc5)cc4)[C@@H]3C2)cc1` is reported as 2 nM (parasite growth; Iowa (Sterling)).
Under “relative parasite number”, `O=C([O-])[C@@H](O)CO.[Na+]` is recorded as 1.01 ± 0.104 (image-based; HCT-8; 1 mM, 24 h post-infection; relative to: PBS).
`O=C(Cc1ccccc1)N1CCN(c2ccc3nncn3n2)CC1` gave an EC50 of 22000 nM (high-content imaging; HCT-8).
`COc1ccc(NC(=O)N2CCCCN3[C@H](CN(C)C)[C@H](c4ccc(C#Cc5ccccc5)cc4)[C@@H]3C2)cc1`: EdU incorporation “inhibited” (intracellular parasite development; HCT-8; EC90).
Under “relative parasite number”, `CC(CN)C(=O)O` (racemic) is recorded as 1.07 ± 0.08 (image-based; HCT-8; 1 mM, 24 h post-infection; relative to: PBS).
For `COc1ccc(NC(=O)N2CCCCN3[C@H](CN(C)S(C)(=O)=O)[C@H](c4ccc(C#Cc5ccccc5)cc4)[C@@H]3C2)cc1`, the EC50 was 6 nM (growth inhibition; WSU field isolate).
For `O=C(Cc1ccc(F)c(F)c1)N1CCN(c2ccc3nncn3n2)CC1`, the EC50 was < 1000 nM (high-content imaging; HCT-8).

Some of these lines once more:
Under “relative parasite number”, `CC(CN)C(=O)O` (racemic) is recorded as 1.07 ± 0.08 (image-based; HCT-8; 1 mM, 24 h post-infection; relative to: PBS).
For `COc1ccc(NC(=O)N2CCCCN3[C@H](CN(C)S(C)(=O)=O)[C@H](c4ccc(C#Cc5ccccc5)cc4)[C@@H]3C2)cc1`, the EC50 was 6 nM (growth inhibition; WSU field isolate).
